Published values pooled from the literature.
Numbered parts are unrelated; each lists some results of a single study.

Sample 1 — method: RNAcompete; form: RNA; matrix: in vitro; tested at: 20 nM; setting: 7-mer, probes averaged, single round; relative to: mean of 7-mers; direction: higher = stronger binding
Target: PABPC1L2, full length, GST fusion (mouse, UniProt A0ABA7IW68)
Residues (chain): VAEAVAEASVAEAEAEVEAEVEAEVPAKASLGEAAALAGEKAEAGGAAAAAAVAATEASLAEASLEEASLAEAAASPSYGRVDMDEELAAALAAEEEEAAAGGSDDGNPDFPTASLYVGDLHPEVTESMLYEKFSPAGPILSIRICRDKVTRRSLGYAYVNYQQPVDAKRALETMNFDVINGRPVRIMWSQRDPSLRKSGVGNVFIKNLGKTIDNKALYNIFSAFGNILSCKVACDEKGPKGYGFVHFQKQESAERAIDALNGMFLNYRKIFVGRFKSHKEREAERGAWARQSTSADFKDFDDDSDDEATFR
Strand | 7-mer Z-score
AUCACGC | -0.142
UAUAACU | -0.144
UUCGGGA | -0.0899
UCGAGAU | -0.26
CUGUCAA | -0.251
GCCAAUA | 0.0207
CCUCGCC | -0.427

Sample 2 — method: protein binding microarray; form: double-stranded DNA, one strand shown; matrix: in vitro; tested at: not given; relative to: not given; direction: higher = stronger binding
Target: Histone acetyltransferase KAT6A, both winged helices, GST fusion (KAT6A, Homo sapiens, UniProt Q92794, residues 1-181)
Setting: 8-mer, flanks averaged, mean of 2 arrays, mostly near background
Target sequence (chain): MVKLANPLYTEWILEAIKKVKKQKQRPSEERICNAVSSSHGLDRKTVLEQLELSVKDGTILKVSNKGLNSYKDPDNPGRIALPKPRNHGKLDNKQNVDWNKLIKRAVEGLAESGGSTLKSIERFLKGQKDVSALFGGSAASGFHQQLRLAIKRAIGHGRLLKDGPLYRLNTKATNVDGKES
Strand | E-score
CTGGCGCC | -0.00664
GACGTTAC | 0.00634
GTCCAAAC | -0.16
AAGGAATA | -0.132
CGTGACCC | 0.122
ATCCTCGC | 0.00443
ATCTCGTG | -0.0709
CCGCGAGC | 0.339
AAATAATC | -0.00978
ACATATCC | 0.0653
CGACGCAC | 0.192

Sample 3 — method: protein-binding microarray; form: double-stranded DNA, one strand shown; matrix: in vitro; tested at: 250 nM; setting: 60-bp whole probe; together with: salmon DNA 0.4 mg/ml; relative to: random background probes; direction: higher = stronger binding; all sequences stand within: GCCTAGCAC … GTCTTGATTCGCTTGACGCTGCTG
Target: Interferon regulatory factor 7, full length, phosphomimetic (IRF7, Homo sapiens, UniProt Q92985, residues 1-503, S101K/S471D/S472D/S475D/S476D/S477D/S483D/S484D/S487D)
Construct (chain): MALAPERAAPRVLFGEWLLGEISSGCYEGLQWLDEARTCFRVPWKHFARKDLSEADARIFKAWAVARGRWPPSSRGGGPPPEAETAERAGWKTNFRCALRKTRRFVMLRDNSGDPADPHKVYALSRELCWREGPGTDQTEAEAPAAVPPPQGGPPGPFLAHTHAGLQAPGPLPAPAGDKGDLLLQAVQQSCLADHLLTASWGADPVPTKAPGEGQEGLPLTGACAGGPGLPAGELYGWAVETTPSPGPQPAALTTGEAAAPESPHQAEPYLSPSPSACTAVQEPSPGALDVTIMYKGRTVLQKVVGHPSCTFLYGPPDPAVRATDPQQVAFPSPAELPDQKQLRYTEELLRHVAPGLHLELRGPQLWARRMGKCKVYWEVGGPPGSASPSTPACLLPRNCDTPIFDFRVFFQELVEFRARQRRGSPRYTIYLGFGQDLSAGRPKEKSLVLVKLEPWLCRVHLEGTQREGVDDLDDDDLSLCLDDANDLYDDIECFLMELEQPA
Strand | log fluorescence [z-score]
ATAGGACTGCTTATCCTTTAGTGCTAG | 0.189
CTCCCCCTCAGATCTGCCGTCGTGCTA | 0.0786
TCAGGACTCGGGTCTCCCACTGTGCTA | 0.993
GACGGACTGGGGACTGGTGACGTGCTA | -0.784
GACGGAATGGACTTTCGGGACGTGCTA | -0.429
GACGGAATGCTTCTCCTGACGTGCTAG | -0.506
GACGGACTAGACTTTCGGGACGTGCTA | -0.129
TTATGTATCGACTATCGGTTAGTGCTA | 0.0558
GACGGACTGGGTCTCGCGACGTGCTAG | -0.581
TTAGATATCGGGTTGCGATTAGTGCTA | 0.327
TCACATTTCCCTTGCCGACTGTGCTAG | 1.5

Sample 4 — method: Sort-seq; measured: YFP reporter; matrix: E. coli; setting: PhoQ-PhoP variant library; together with: 10 µM Mg2+; relative to: high Mg2+ state; direction: higher = stronger signaling
Substance: PhoQ, residues 284 288 289 292 302 303 SSCCRF
target | fold induction
PhoP, residues 12 14 15 18 19 ICWRQ (Escherichia coli, UniProt P23836) | 4.85
PhoP, residues 12 14 15 18 19 VHTVL (Escherichia coli, UniProt P23836) | 5.09
PhoP, residues 12 14 15 18 19 TQCLL (Escherichia coli, UniProt P23836) | 4.79

Excerpt of the above (sample 2):
Strand | E-score
ATCCTCGC | 0.00443
CGACGCAC | 0.192
CCGCGAGC | 0.339
AAATAATC | -0.00978
CGTGACCC | 0.122
